Experimental data pooled from the literature.
Each numbered part is a random draw from the data of one study; scales do not carry over between parts. Positions count from the first letter of the parent shown.

Series 1
Target: Interferon regulatory factor 7, full length, phosphomimetic (IRF7, Homo sapiens, UniProt Q92985, residues 1-503, S101K/S471D/S472D/S475D/S476D/S477D/S483D/S484D/S487D)
Method: protein-binding microarray
Form: double-stranded DNA, one strand shown
Matrix: in vitro
Concentration: 250 nM
Notes: 60-bp whole probe
Added: salmon DNA 0.4 mg/ml
Reference: random background probes
Reading: higher = stronger binding
Quantity: log fluorescence
Constant ends, left off below: GCCTAGCAC … GTCTTGATTCGCTTGACGCTGCTG
Target sequence (chain): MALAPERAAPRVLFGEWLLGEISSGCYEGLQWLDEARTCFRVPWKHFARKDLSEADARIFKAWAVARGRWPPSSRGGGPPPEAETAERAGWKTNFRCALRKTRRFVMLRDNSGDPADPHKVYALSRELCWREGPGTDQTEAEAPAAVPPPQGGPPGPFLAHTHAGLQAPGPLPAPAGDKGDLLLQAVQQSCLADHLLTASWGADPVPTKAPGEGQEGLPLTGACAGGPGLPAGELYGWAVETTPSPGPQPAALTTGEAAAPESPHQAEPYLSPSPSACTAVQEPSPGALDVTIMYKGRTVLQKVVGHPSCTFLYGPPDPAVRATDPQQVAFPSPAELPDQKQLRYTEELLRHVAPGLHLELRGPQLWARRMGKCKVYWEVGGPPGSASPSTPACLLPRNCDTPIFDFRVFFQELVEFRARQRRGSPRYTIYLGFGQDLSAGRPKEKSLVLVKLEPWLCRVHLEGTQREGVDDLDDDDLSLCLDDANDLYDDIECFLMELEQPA
TTAGGTTTCGACACTGCGTTAGTGCTA: 3.5 z-score
TTACGTATCCTTCTCCTTTAGTGCTAG: 0.748 z-score
TTAGGTTTCGACTTTCCGTTAGTGCTA: 10.4 z-score
TTAGGACTGGGGTTTCTGTTAGTGCTA: 1.25 z-score
TCTCTGTTCTTTTCAGTCCCGTGCTAG: 1.55 z-score
TTAGAGATCAGTATCGATTAGTGCTAG: 0.489 z-score
TTAGGTTCCGGTTACGGTTAGTGCTAG: 4.53 z-score
GACGGACTGAGGACTGGGGACGTGCTA: -0.706 z-score
TTTGGACTGGGGTTTCGGTTAGTGCTA: 4.79 z-score
GACGGACTGGGGCTGGGGACGTGCTAG: -0.455 z-score
GACGGTTTCCTTTCCCAGACGTGCTAG: 4.82 z-score
GGCGATATCAGTTTCGAGACGTGCTAG: 3.52 z-score
ATTGGTCTTCACTTGGCAAAGTGCTAG: 0.408 z-score
TCCTGTATGGATGTGTCTTAGTGCTAG: -0.309 z-score
GACCTTTTTAAGATCTGTGCGTGCTAG: 0.892 z-score
GACGGTATCGACGTTCGGGACGTGCTA: -0.618 z-score
AGTAATGACCTTCTCAGGAGGTGCTAG: -0.0655 z-score
GACGGTTTCAGTTCCGAGACGTGCTAG: 3.17 z-score
TTAGATTTCGGGAGTGGATTAGTGCTA: 0.052 z-score

Series 2
Target: Histone acetyltransferase KAT6A, winged helix 1, GST fusion (KAT6A, Homo sapiens, UniProt Q92794, residues 1-85)
Method: protein binding microarray
Form: double-stranded DNA, one strand shown
Matrix: in vitro
Concentration: not given
Notes: 8-mer, flanks averaged, mean of 2 arrays, mostly near background
Reference: not given
Reading: higher = stronger binding
Quantity: E-score
Target sequence (chain): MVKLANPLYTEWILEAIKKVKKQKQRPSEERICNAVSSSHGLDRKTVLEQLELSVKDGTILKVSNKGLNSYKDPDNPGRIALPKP
CGGATCAA: 0.0637
ATTTTAGA: -0.104
GATCGTAA: -0.102
AGATGGCT: -0.106
CCGCCCGC: 0.443
CGCGTGCC: 0.351
ATTACGCA: 0.203
CACTCATC: -0.178
ACTCAATG: -0.111
CCAAGGCC: 0.00866
AGGGCGTC: 0.239
CGCCTGGC: 0.296
CAGCCACC: -0.0703
ACACAAGG: -0.148
AGCCCCGA: 0.0593
ACGTCCAG: -0.0489
ACTGCGAC: 0.158
TACGCCCA: -0.0616
ATGGAGAA: -0.0191
ATTAGTTA: -0.0683
AATAACTC: -0.185
GCAATCAA: -0.206
TCGTGGCA: -0.167
TAGCAGGA: -0.308

Series 3
Target: ABI1, truncated, D143A, DHFR fusion (Arabidopsis thaliana)
Method: DHFR PCA, deep sequencing
Matrix: yeast
Notes: methotrexate growth selection, single substitutions
Added: (+)-ABA 0.032 µM
Reference: wild-type fitted maximum
Reading: higher = stronger binding
Quantity: relative binding score
Starting sequence: PYL1, truncated, DHFR fusion (Arabidopsis thaliana); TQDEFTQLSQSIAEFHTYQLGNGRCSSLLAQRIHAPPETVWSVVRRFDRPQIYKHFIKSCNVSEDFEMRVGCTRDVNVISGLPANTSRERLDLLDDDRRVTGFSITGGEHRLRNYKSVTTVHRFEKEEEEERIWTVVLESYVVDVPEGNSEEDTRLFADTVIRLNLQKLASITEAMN
L138R: 2.4%
I12N: -8.59%
T17H: -2.26%
A84F: 85.1%
E109T: 8.22%
V40M: 3.16%
R113S: 10.8%
A35S: 3.57%
R123D: 12.5%
S117L: 0.806%
V44H: -7.97%
G23C: 4.63%
Y18W: 17.7%
R45G: -8.53%
A35H: -8.5%
A35F: -6.62%
L164R: 7.13%
L20V: 52.5%
I133R: 8.55%
W134M: 36.5%
V143E: 0.143%

Series 4
Organism: Saccharomyces cerevisiae
Read-out: binding
Method: yeast competitive growth sequencing
Form: peptide
Strain: cyclin D1-Cln2 strain
Matrix: peptide tiling library
Reading: direction not given
Quantity: enrichment score
NFETPEAETPIRSPFK: 1.97
DWDTVERQEEEAPSWD: 2.65
GAEELEDLVHFSVSEL: 2.7
LRRQLSFSED: 0.182
ARKRLELGNLGNPQ: -1.16
KVKRRLDLDIDGLQKE: -0.402
RRVLCFDS: -1.34
PPKPLKKLRFDIEGSD: -0.587
RKLHFEDEVT: 2.87
RKLDLEGIGR: -0.534
PPTFLSTGEIHAFLSS: 0.476
LRRKLFLDGNGSIS: -1.76
TTTTSPRTPPPLTVQD: 2.41

A few entries again (series 2):
ACGTCCAG: -0.0489
ACTGCGAC: 0.158
TACGCCCA: -0.0616
ATGGAGAA: -0.0191
ATTAGTTA: -0.0683
AATAACTC: -0.185
GCAATCAA: -0.206
